Measured values of several laboratories.
Every numbered part comes from another study and shows a few of its results, in no order.
UniProt Q9BY78, sequence (whole entry, looked up): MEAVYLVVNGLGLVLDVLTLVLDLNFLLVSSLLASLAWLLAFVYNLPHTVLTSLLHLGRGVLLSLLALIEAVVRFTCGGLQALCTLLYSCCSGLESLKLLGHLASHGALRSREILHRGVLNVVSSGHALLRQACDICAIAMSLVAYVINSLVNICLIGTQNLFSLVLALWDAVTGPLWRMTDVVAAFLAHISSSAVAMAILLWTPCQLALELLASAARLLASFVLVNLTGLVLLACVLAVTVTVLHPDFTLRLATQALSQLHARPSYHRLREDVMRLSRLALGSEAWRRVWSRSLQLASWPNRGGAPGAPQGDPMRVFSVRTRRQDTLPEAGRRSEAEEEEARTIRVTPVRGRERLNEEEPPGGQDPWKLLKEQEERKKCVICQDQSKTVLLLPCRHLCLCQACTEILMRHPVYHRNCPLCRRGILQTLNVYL
UniProt O43567, sequence (whole entry, looked up): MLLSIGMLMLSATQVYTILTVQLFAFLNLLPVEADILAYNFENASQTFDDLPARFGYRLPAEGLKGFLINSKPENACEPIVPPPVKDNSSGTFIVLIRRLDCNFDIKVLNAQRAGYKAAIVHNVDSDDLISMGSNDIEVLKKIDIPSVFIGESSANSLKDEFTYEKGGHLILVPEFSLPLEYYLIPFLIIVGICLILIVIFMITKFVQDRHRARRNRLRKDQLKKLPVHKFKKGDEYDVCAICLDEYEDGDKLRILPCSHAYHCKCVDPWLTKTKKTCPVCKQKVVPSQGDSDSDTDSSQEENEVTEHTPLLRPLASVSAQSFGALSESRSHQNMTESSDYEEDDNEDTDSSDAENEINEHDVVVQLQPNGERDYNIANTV
UniProt Q9UNE7, sequence (whole entry, looked up): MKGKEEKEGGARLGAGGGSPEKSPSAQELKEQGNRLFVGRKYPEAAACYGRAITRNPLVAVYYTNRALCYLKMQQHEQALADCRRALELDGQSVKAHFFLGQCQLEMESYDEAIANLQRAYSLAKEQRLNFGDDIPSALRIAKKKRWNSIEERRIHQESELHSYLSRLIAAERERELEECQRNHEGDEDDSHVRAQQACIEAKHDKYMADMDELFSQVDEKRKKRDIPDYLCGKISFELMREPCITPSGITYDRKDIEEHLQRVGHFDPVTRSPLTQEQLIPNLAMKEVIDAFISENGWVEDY

Series 1 — effect on: enzyme activity; action: inhibitor; method: radiometric; tested at: 0.5 µM; quantity: remaining activity
Target: Dual specificity tyrosine-phosphorylation-regulated kinase 1B (DYRK1B, Homo sapiens, UniProt Q9Y463)
SMILES = CCOc1nc(NC(=O)Cc2cc(OC)ccc2OC)cc(N)c1C#N; value = 99.2%
SMILES = N#C/C(=C\c1ccc(O)c(O)c1)C(=O)NCc1ccccc1; value = 106%
SMILES = Nc1cccc(-c2cc3c(Oc4cccc(O)c4)ncnc3[nH]2)c1; value = 100%
SMILES = O=c1cc(-c2cccc3c2Sc2ccccc2S3)oc(N2CCOCC2)c1; value = 101%
SMILES = COc1cc2c(cc1OC)-c1[nH]nc(Nc3cccc(F)c3)c1C2; value = 102%
SMILES = O=C(NC(NC(=S)Nc1ccc(F)c([N+](=O)[O-])c1)C(Cl)(Cl)Cl)C(c1ccccc1)c1ccccc1 (stereo not shown); value = 103%
SMILES = O=C1C(Cl)=C(N2C(=O)CCC2=O)C(=O)c2ccccc21; value = 103%
SMILES = COC[C@H]1OC(=O)c2coc3c2[C@@]1(C)C1=C(C3=O)[C@@H]2CCC(=O)[C@@]2(C)C[C@H]1OC(C)=O; value = 100%
SMILES = COc1cc2ncnc(Nc3ccc(O)c(Br)c3)c2cc1OC; value = 91.3%
SMILES = CCN(CC)C(=O)c1ccc(Nc2nc(OCC3CCCCC3)c3[nH]cnc3n2)cc1; value = 90.2%
SMILES = O=C1c2ccccc2-[n+]2ccc3c([nH]c4ccccc43)c21; value = 98.7%
SMILES = c1ccc(-c2cnc(Nc3ccc(OCCN4CCCC4)cc3)s2)cc1; value = 95.4%
SMILES = CN([C@@H](Cc1ccc(OS(=O)(=O)c2cccc3cnccc23)cc1)C(=O)N1CCN(c2ccccc2)CC1)S(=O)(=O)c1cccc2cnccc12; value = 101%
SMILES = C[C@@H]1CCN(C(=O)CC#N)C[C@@H]1N(C)c1ncnc2[nH]ccc12; value = 97%

Series 2 — effect on: peptide-MHC binding; form: peptide; tested at: concentration not given; quantity: binding
Target: HLA class I histocompatibility antigen, A alpha chain, allele A*25:01 (Homo sapiens, UniProt P04439)
Molecule = SHDLAPQFL; value = inactive
Molecule = RAMDVYCHR; value = inactive
Molecule = WDAYIPHYV; value = inactive
Molecule = GPSPSHKSV; value = inactive
Molecule = RSFPEWDYI; value = inactive
Molecule = TVAPPAPVY; value = inactive
Molecule = EWAENCYNL; value = inactive
Molecule = THADAHTQL; value = inactive

Series 3 — target: UBE2D3 UBC core domain (UniProt P61077); method: yeast two-hybrid; medium: yeast; setting: mostly zero background; reference: not given; direction: higher = stronger interaction; quantity: lacZ reporter activity
UniProt P61077, sequence (whole entry, looked up): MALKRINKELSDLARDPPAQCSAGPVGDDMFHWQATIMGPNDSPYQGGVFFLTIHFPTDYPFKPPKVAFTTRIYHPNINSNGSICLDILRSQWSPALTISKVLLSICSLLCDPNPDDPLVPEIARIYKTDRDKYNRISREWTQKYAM
Molecule = RNF13 RING domain (UniProt O43567); value = 12700
Molecule = STUB1 RING domain (UniProt Q9UNE7); value = 0
Molecule = RNF26 RING domain (UniProt Q9BY78); value = 4390
Molecule = RNF167 RING domain (UniProt Q9H6Y7); value = 16000

Other studies, line by line — method: protein-binding microarray; form: double-stranded DNA, one strand shown; medium: in vitro; tested at: 0.8 µM; setting: whole 60-bp probe, no competitor; direction: higher = stronger binding
Target: Centromere-binding protein 1, full length, N-terminal tag (CBF1, Saccharomyces cerevisiae, UniProt P17106, residues 1-351)
UniProt P17106, sequence (whole entry, looked up): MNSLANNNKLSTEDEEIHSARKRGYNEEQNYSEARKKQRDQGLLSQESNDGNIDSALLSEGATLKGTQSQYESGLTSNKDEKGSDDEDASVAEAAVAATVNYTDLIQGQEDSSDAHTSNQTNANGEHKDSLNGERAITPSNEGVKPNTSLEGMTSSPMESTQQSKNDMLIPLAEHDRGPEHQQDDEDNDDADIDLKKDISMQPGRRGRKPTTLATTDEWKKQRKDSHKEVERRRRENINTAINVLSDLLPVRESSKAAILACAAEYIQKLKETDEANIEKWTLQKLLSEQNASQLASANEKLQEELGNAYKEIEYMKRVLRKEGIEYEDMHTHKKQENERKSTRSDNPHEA
Strand = TGTACGAAGCTATATCAGGTGTGTATAGTAGTTAGGGTCTTGATTCGCTTGACGCTGCTG; fluorescence intensity = 675 a.u.
Strand = CTAAAAAAAATAAGTCACGTGCACTCAGTACCCTTCGTCTTGATTCGCTTGACGCTGCTG; fluorescence intensity = 27300 a.u.

Excerpt of the above (series 3):
Molecule = RNF26 RING domain (UniProt Q9BY78); value = 4390
Molecule = RNF167 RING domain (UniProt Q9H6Y7); value = 16000
